{"data": "Measurements pooled from the literature", "note": "Each numbered part is a random draw from the data of one study; scales do not carry over between parts. Substitutions count along the parent as printed."}
{"data": "Sample 1", "target": "Sal-like protein 4, full length isoform B (SALL4, Homo sapiens, UniProt Q9UJQ4-2, residues 1-616)", "technique": "universal PBM", "molecule type": "double-stranded DNA, one strand shown", "matrix": "in vitro", "tested at": "not given", "notes": "8-mer, flanks averaged, mean of replicates", "reading": "higher = stronger binding"}
{"Sequence": "CCTCGTGC", "E-score": -0.15}
{"Sequence": "ATGCGTCG", "E-score": -0.0469}
{"Sequence": "GTGTCGCA", "E-score": -0.101}
{"data": "Sample 2", "target": "RNA binding protein fox-1 homolog 2, RRM domain, GST-SBP tag (RBFOX2, Homo sapiens, UniProt O43251-10, residues 100-194)", "technique": "RNA Bind-n-Seq", "molecule type": "RNA", "matrix": "in vitro", "tested at": "365 nM", "notes": "natural RNA segment, single round, ends assumed", "relative to": "no-protein control", "reading": "higher = stronger binding", "shared flanks, not repeated": "GGGAGUUCUACAGUCCGACGAUC … UGGAAUUCUCGGGUGCCAA", "Construct (chain)": "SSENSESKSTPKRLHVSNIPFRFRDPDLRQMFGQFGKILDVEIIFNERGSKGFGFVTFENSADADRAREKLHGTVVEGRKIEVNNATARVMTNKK"}
{"Sequence": "AUCAGAAGUAUAAUGAAGUUGGAAUAAAUUCUUUAAAGUUUACUAUGUUGCCAGUGGUUUCACACAAAUUCCCUUGUAUUUAUUUGUUGAUUAAAUCAAGUGAGAAAGGU", "RBNS enrichment (R)": 0.697}
{"Sequence": "UCAGUGAUAGGCAUUGAGAUCAUGCAUUCGACCAUUUGUCCUGUUCUAAUUAUGAAGAGCGUACCAGAAGUCUGUAUGAUAUUAGUGUCAUAUUUCAUUCAAAUGCCAAU", "RBNS enrichment (R)": 0.31}
{"Sequence": "GAUUUUUGAGUCGUUAUCAAGCUAAGUGGCAAGCGGGAAGCUGAAACUCGUAUAGGUGAACAUUCUUGGAGGCUUAUCUCUUCCCUGGCCAGAUGCCUGAUCAGAUGAGA", "RBNS enrichment (R)": 0.279}
{"Sequence": "GAAACAUGAAGAUAUUAAAAUGGCAGCUGGCUAACUGUCUCUUAAGCCACUAUGCAAUUUCUACCAAUGGAGAGAUUAGGGAAGCAAAUUAAGCCUCAUUCAGUAGGUCU", "RBNS enrichment (R)": 0.409}
{"Sequence": "UGGCCUUCCUAGAACACUGCUUCAUAACCUCUCUGUCUGACUUCUGCAUCUCCUUCCAGGUCAGCUCAUUCACAAGAGUUGCUCCCAAGCCUGGAUGAGUUGCACCUUGC", "RBNS enrichment (R)": 0.488}
{"data": "Sample 3", "target": "CCNF, cyclin fold, Cln2 fusion (human)", "technique": "yeast growth competition, sequencing", "matrix": "yeast", "notes": "strong parent motif", "relative to": "not given", "reading": "higher = stronger binding", "starting sequence": "RBL2 docking peptide (human); STTRRRLFVENDS"}
{"Variant": "SRTRRRLFVENDS [T2R]", "normalised enrichment score": 8.01}
{"Variant": "STTQRRLFVENDS [R4Q]", "normalised enrichment score": 5.86}
{"Variant": "STERRRLFVENDS [T3E]", "normalised enrichment score": 2.89}
{"data": "Further values, each from its own experiment"}
{"Molecule": "PhoQ, residues 284 288 289 292 302 303 TTSMTC", "target": "PhoP, residues 12 14 15 18 19 SGWQI (Escherichia coli, UniProt P23836)", "assay": "Sort-seq, refers to: YFP reporter", "test system": "E. coli", "setting": "PhoQ-PhoP variant library, added: 10 µM Mg2+", "scale": "relative to: high Mg2+ state, higher = stronger signaling", "quantity": "fold induction", "value": 6.25}
{"note": "For quick reference, copied from above (sample 1):"}
{"Sequence": "CCTCGTGC", "E-score": -0.15}
